Assay results pooled from the literature.
Compare with care: the assays were run in different laboratories.

Nc1ncnc2c([C@@H]3N[C@H](CO)[C@@H](O)[C@H]3O)c[nH]c12 — antigen-positive cells (Zaire ebolavirus; antibody staining; HeLa, Kikwit; 200 µM): 0.06%
KLLKSIAATRGATVV — responding donors (human CD4 T cells; AIM; peptide): 6%
COC(=O)CC[C@H](NC(=O)[C@H](CC(=O)OC)NC(=O)OCc1ccccc1)C(=O)N[C@H](C(=O)N[C@@H](CC(=O)OC)C(=O)CF)C(C)C — inhibition (Replicase polyprotein 1ab, main protease (rep, Severe acute respiratory syndrome coronavirus 2, UniProt P0DTD1); reporter gene (Gaussia luciferase), inhibitor; 20 µM): 4.31%
CC[C@H](C)[C@H](NC(=O)[C@H](CC(C)C)NC(=O)[C@H](Cc1c[nH]c2ccccc12)NC(=O)[C@H](CCC(N)=O)NC(=O)[C@@H](NC(=O)[C@H](Cc1ccccc1)NC(=O)[C@H](C)NC(=O)[C@H](CCCCNC(=O)COCCOCCNC(=O)COCCOCCNC(=O)CC[C@H](NC(=O)CCCCCCCCCCCCCCCCCCC(=O)O)C(=O)O)NC(=O)[C@H](CCC(N)=O)NC(=O)[C@H](C)NC(=O)[C@@H](NC(=O)[C@H](CCCCN)NC(=O)[C@H](CC(=O)O)NC(=O)[C@H](CC(C)C)NC(=O)C(C)(C)NC(=O)[C@@H](NC(=O)[C@H](CO)NC(=O)[C@H](Cc1ccc(O)cc1)NC(=O)[C@H](CC(=O)O)NC(=O)[C@H](CO)NC(=O)[C@@H](NC(=O)[C@H](Cc1ccccc1)NC(=O)[C@@H](NC(=O)CNC(=O)[C@H](CCC(=O)O)NC(=O)C(C)(C)NC(=O)[C@@H](N)Cc1ccc(O)cc1)[C@@H](C)O)[C@@H](C)O)[C@@H](C)CC)[C@@H](C)CC)C(C)C)C(=O)N[C@@H](C)C(=O)NCC(=O)NCC(=O)N1CCC[C@H]1C(=O)N[C@@H](CO)C(=O)N[C@@H](CO)C(=O)NCC(=O)N[C@@H](C)C(=O)N1CCC[C@H]1C(=O)N1CCC[C@H]1C(=O)N1CCC[C@H]1C(=O)N[C@@H](CO)C(N)=O — adjudicated acute pancreatitis (healthy subjects; 4.5 mg, multiple ascending dose): 0%
YIRVGARKSAPLIEL — responding donors (human CD4 T cells; AIM; peptide): 18%

A few entries again:
YIRVGARKSAPLIEL — responding donors (human CD4 T cells; AIM; peptide): 18%
